Measurements pooled from the literature.
± gives the spread as reported. No end group written: not given here.
B1: enzyme (Bacillus pumilus, UniProt A8FFI9); chain EARSIAWSVDEFFKNREGTFVIQEVKEKSPWVYNKKRAKERFAPQSTFKVANALIGLQTGAVRDEYDIKYWDGVKREIDNWNRDHTLGSGMRDSVVWYYQAMARDIGEERMNHWVKAIHYGNKDISGGIDQFWLSSTLRISPIEQVRFLKQLYEETLPFDLKNMRTVKRMMVQEEEKHATLYGKTGSGSDIGWYVGFIKHEHKTYILATNIKGTGIEAKDITYRILKKYHLMEASV
B2: UGT1A9 (Homo sapiens, UniProt O60656); chain GKLLVVPMDGSHWFTMRSVVEKLILRGHEVVVVMPEVSWQLGRSLNCTVKTYSTSYTLEDLDREFKAFAHAQWKAQVRSIYSLLMGSYNDIFDLFFSNCRSLFKDKKLVEYLKESSFDAVFLDPFDNCGLIVAKYFSLPSVVFARGILCHYLEEGAQCPAPLSYVPRILLGFSDAMTFKERVRNHIMHLEEHLLCHRFFKNALEIASEILQTPVTEYDLYSHTSIWLLRTDFVLDYPKPVMPNMIFIGGINCHQGKPLPMEFEAYINASGEHGIVVFSLGSMVSEIPEKKAMAIADALGKIPQTVLWRYTGTRPSNLANNTILVKWLPQNDLLGHPMTRAFITHAGSHGVYESICNGVPMVMMPLFGDQMDNAKRMETKGAGVTLNVLEMTSEDLENALKAVINDKSYKENIMRLSSLHKDRPVEPLDLAVFWVEFVMRHKGAPHLRPAAHDLTWYQYHSLDVIGFLLAVVLTVAFITFKCCAYGYRKCLGKKGRVKKAHKSKTH
B3: erenumab; V domains shown; sequence looked up; VH QVQLVESGGGVVQPGRSLRLSCAASGFTFSSFGMHWVRQAPGKGLEWVAVISFDGSIKYSVDSVKGRFTISRDNSKNTLFLQMNSLRAEDTAVYYCARDRLNYYDSSGYYHYKYYGMAVWGQGTTVTVSS; VL QSVLTQPPSVSAAPGQKVTISCSGSSSNIGNNYVSWYQQLPGTAPKLLIYDNNKRPSGIPDRFSGSKSGTSTTLGITGLQTGDEADYYCGTWDSRLSAVVFGGGTKLTVL
B4: TIMP3 24-144 (Homo sapiens, UniProt P35625); sequence looked up; chain CTCSPSHPQDAFCNSDIVIRAKVVGKKLVKEGPFGTLVYTIKQMKMYRGFTKMPHVQYIHTEASESLCGLKLEVNKYQYLLTGRVYDGKMYTGLCNFVERWDQLTLSQRKGLNYRYHLGCN
B5: NR1I3 105-348 (Homo sapiens, UniProt Q14994-2); sequence looked up; chain QLSKEQEELIRTLLGAHTRHMGTMFEQFVQFRPPAHLFIHHQPLPTLAPVLPLVTHFADINTFMVLQVIKFTKDLPVFRSLPIEDQISLLKGAAVEICHIVLNTTFCLQTQNFLCGPLRYTIEDGARVGFQVEFLELLFHFHGTLRKLQLQEPEYVLLAAMALFSPDRPGVTQRDEIDQLQEEMALTLQSYIKGQQRRPRDRFLYAKLLGLLAELRSINEAYGYQIQHIQGLSAMMPLLQEICS
B6: GORASP1 PDZ domain (Homo sapiens); chain EGFHLHGVQENSPAQQAGLEPYFDFIITIGHSRLNKENDTLKALLKANVEKPVKLEVFNMKTMRVREVEVVPSNMWGGQGLLGASVRFCSF
B7: IL1RL1 19-328 (Homo sapiens, UniProt Q01638); sequence looked up; chain KFSKQSWGLENEALIVRCPRQGKPSYTVDWYYSQTNKSIPTQERNRVFASGQLLKFLPAAVADSGIYTCIVRSPTFNRTGYANVTIYKKQSDCNVPDYLMYSTVSGSEKNSKIYCPTIDLYNWTAPLEWFKNCQALQGSRYRAHKSFLVIDNVMTEDAGDYTCKFIHNENGANYSVTATRSFTVKDEQGFSLFPVIGAPAQNEIKEVEIGKNANLTCSACFGKGTQFLAAVLWQLNGTKITDFGEPRIQQEEGQNQSFSNGLACLDMVLRIADVKEEDLLLQYDCLALNLHGLRRHTVRLSRKNPIDHHS
B8: DIS3 (Saccharomyces cerevisiae, UniProt Q08162); sequence looked up; chain MSVPAIAPRRKRLADGLSVTQKVFVRSRNGGATKIVREHYLRSDIPCLSRSCTKCPQIVVPDAQNELPKFILSDSPLELSAPIGKHYVVLDTNVVLQAIDLLENPNCFFDVIVPQIVLDEVRNKSYPVYTRLRTLCRDSDDHKRFIVFHNEFSEHTFVERLPNETINDRNDRAIRKTCQWYSEHLKPYDINVVLVTNDRLNREAATKEVESNIITKSLVQYIELLPNADDIRDSIPQMDSFDKDLERDTFSDFTFPEYYSTARVMGGLKNGVLYQGNIQISEYNFLEGSVSLPRFSKPVLIVGQKNLNRAFNGDQVIVELLPQSEWKAPSSIVLDSEHFDVNDNPDIEAGDDDDNNESSSNTTVISDKQRRLLAKDAMIAQRSKKIQPTAKVVYIQRRSWRQYVGQLAPSSVDPQSSSTQNVFVILMDKCLPKVRIRTRRAAELLDKRIVISIDSWPTTHKYPLGHFVRDLGTIESAQAETEALLLEHDVEYRPFSKKVLECLPAEGHDWKAPTKLDDPEAVSKDPLLTKRKDLRDKLICSIDPPGCVDIDDALHAKKLPNGNWEVGVHIADVTHFVKPGTALDAEGAARGTSVYLVDKRIDMLPMLLGTDLCSLKPYVDRFAFSVIWELDDSANIVNVNFMKSVIRSREAFSYEQAQLRIDDKTQNDELTMGMRALLKLSVKLKQKRLEAGALNLASPEVKVHMDSETSDPNEVEIKKLLATNSLVEEFMLLANISVARKIYDAFPQTAMLRRHAAPPSTNFEILNEMLNTRKNMSISLESSKALADSLDRCVDPEDPYFNTLVRIMSTRCMMAAQYFYSGAYSYPDFRHYGLAVDIYTHFTSPIRRYCDVVAHRQLAGAIGYEPLSLTHRDKNKMDMICRNINRKHRNAQFAGRASIEYYVGQVMRNNESTETGYVIKVFNNGIVVLVPKFGVEGLIRLDNLTEDPNSAAFDEVEYKLTFVPTNSDKPRDVYVFDKVEVQVRSVMDPITSKRKAELLLK

Substance	target or system	test	test system	conditions	scale	quantity	value
cpSRP43 substrate-binding domain (Arabidopsis thaliana)	HEMA1 mature (Arabidopsis thaliana, UniProt P42804)	heat-induced aggregation, light scattering			baseline: cpSRP43-FL, higher = weaker chaperone activity	chaperone activity	> 20 fold lower
TPDYLMQLMNDKKAMSSLPNFSGIFNHLERLLDEEISRVRKDMYNDTLNGSTEK (Qki 14-67 C35S/L27A (Mus musculus, UniProt Q9QYS9))	itself	CD thermal melting		50 µM		melting temperature	67 °C
CALM1 holo (Homo sapiens, UniProt P0DP23)	Nos1 (Rattus norvegicus, UniProt P29476)	optical stopped-flow		CaM not pre-bound, with: NADPH, holo CaM		flavin reduction rate, fast phase	132 s⁻¹
IL2 Y45K/E62K/N90R/T131R (Homo sapiens)	IL2RA (Homo sapiens, UniProt P01589)	flow cytometry	human PBMCs		baseline: wildtype IL2, higher = greater reduction	pSTAT5+ Tregs	3000 fold
B1 (enzyme)	CCN1CCN(C(=O)N[C@@H](C(=O)N[C@@H]2C(=O)N3[C@@H]2SC(C)(C)[C@@H]3C(=O)O)c2ccccc2)C(=O)C1=O	steady-state kinetics		pH 7		kcat/Km	3.9e+06 ± 600000 M⁻¹ s⁻¹
trichosanthin V232K/N236D (Trichosanthes kirilowii)	ribosomal P protein C-terminal peptide residues 105-115 (Homo sapiens)	protein synthesis inhibition, inhibitor	rabbit reticulocyte lysate			IC50	6.28 nM
Rigi fragment (Mus musculus)	Trim25 440-630 D488A (Mus musculus, UniProt Q61510)	IFNβ reporter	HEK-293T		baseline: wild type TRIM25, higher = greater loss of enhancement	reduction of IFNβ induction	31 % reduction
Mca-PLGL-Dpa-AR-NH2, N-terminal Mca/Dpa residue 5/C-terminal amide	MMP14 112-318 (Homo sapiens, UniProt P50281)	steady-state kinetics		37 °C		Km	2.14 µM
SELL (Homo sapiens, UniProt P14151)	SELPLG 42-320 (Homo sapiens, UniProt Q14242)	cell rolling	Jurkat	untreated cells	higher = faster rolling	mean rolling velocity	226 µm/s
rat amylin	IAPP (Homo sapiens, UniProt P10997)	ThT fluorescence		6 molar equivalents, pH 7.2, 2% HFIP		aggregation lag time	93 min
B2 (UGT1A9)	O=c1cc(-c2ccccc2)oc2cc(O)cc(O)c12	steady-state kinetics		pH 7.4, 37 °C		Vmax/Km	18100 µL/min/mg
MVQNDFVDSYDVTMLLQDDDGKQYYEYHKGLSLSDWEVLYGNTADEIIKLRLDKVL (p56 1-56 F36W (Bacillus phage phi29, UniProt Q38503))	ung 1-225 (Bacillus subtilis, UniProt P39615)	ssDNA-U16 cleavage			baseline: wild-type p56, higher = greater decrease in inhibition	inhibition of uracil excision	3 fold
B3 (erenumab)	CALCR/RAMP1 on cells (Homo sapiens)	cAMP production, antagonist	antibody, HEK293S	one erenumab concentration, with: calcitonin		pA2	5.34
Ppp2r5b E153Q (Rattus norvegicus)	GST-TH 31-164, pS40 (UniProt P04177)	Ser40 dephosphorylation	COS, immunoisolated holoenzyme		baseline: wild type, higher = less activity	relative dephosphorylation inhibition	50 % inhibition
insulin degludec			human end-stage renal disease, serum	subcutaneous, 0.4 U/kg, dosed after hemodialysis		AUC(13-17 h)	0.0104 µM·h
CALM1 (Homo sapiens, UniProt P0DP23)	RYR2 del4077-4080 (Oryctolagus cuniculus, UniProt P30957)	single-channel planar bilayer	liposomes	1 µM, with: Ca2+ 2 µM	baseline: no CaM, higher = more open	normalized open probability	78 % no CaM
B4 (TIMP3 24-144)	ADAMTS5 262-874 (Homo sapiens, UniProt Q9UNA0)	inhibitor, steady-state kinetics		1 h, pH 7.5, 37 °C		Ki	0.35 nM

Substance	target or system	test	test system	conditions	scale	quantity	value
IGF1 (Homo sapiens, UniProt P05019)	IGF1R (Gallus gallus)	process branching	embryonic spinal motoneurons	0.1-10 nM	baseline: no hormone, higher = more branching	branching points per neuron	1.25
VPLPAGGGTVLTKMYPRGNHWAVGHLM-NH2 (GRP mature (UniProt P07492); C-terminal amide)	GRPR E175A (Homo sapiens, UniProt P30550)	calcium mobilization	peptide, CHO		baseline: wild-type receptor, higher = greater loss	signalling decrease	14 fold
GGGAGACCUAGCCUCAUAUAAUCGUUGUCCAGAAUUGUAUAUAUUCGUAGCAUAAGUUUUCCAAACAUUAUUUUGUUGUCGAAAAUUGUACAUAAGCCAAUUAAGCCGCUAAUUCU (ssRNA)	brat 756-1037 (Drosophila melanogaster, UniProt Q8MQJ9)	competition				binding	binds
INS mature A and B chains, PEG 5000 on A1 and B29 (Homo sapiens)	Insr (Mus musculus, UniProt P15208)	AKT Ser473 phosphorylation, agonist, HTRF	C2C12	30 min		EC50	3400 nM
CALCA mature alpha-CGRP (Homo sapiens, UniProt P06881)	CALCR whole, on cells (Homo sapiens)	cAMP, CAMYEL BRET	COS-7	end-point		pEC50	7.67
rob (Escherichia coli, UniProt P0ACI0)	rpoD R603A (Escherichia coli, UniProt P00579)	β-galactosidase reporter		with: micF promoter	baseline: wild-type σ70, higher = more activation	transcription activation	73%
C5a (Homo sapiens, UniProt P01031)	C5AR1 (Homo sapiens, UniProt P21730)	flow cytometry	granulocytes, whole blood	210 nM, with: TRAP 10 µM	baseline: TRAP alone, higher = more aggregates	platelet-granulocyte aggregates	1.5 fold
B5 (NR1I3 105-348)	MED1 527-774 (Homo sapiens, UniProt Q15648)	two-hybrid	COS1		baseline: empty VP16-AD, higher = more interaction	activation factor	100 fold
B6 (GORASP1 PDZ domain)	RPS6KA1 fragment, pS732 (Homo sapiens)	holdup assay	E. coli lysate		higher = more PDZ depleted	binding intensity	0.23 ± 0.03
PIN1 (Homo sapiens, UniProt Q13526)	Grm5 C-terminal tail, pT1123/pS1126	cis/trans isomerisation of pS1126-P, ZZ-exchange NMR		20 µM Pin1, 25 °C		kcat	1140 s⁻¹
NRTN fragment (Homo sapiens)	RET 29-635 (Homo sapiens, UniProt P07949)	MAPK signaling, SRE luciferase reporter, agonist	TGW neuroblastoma			EC50	2.1 ng/mL
human Hsc70	STUB1 (Homo sapiens, UniProt Q9UNE7)	binder, biolayer interferometry		pH 7.4, 25 °C		kon	87000 ± 4000 M⁻¹ s⁻¹
human His-tagged SHP2	SHP2 (human)	basal phosphatase activity		30 min, pH 7.2, 30 °C, with: p-nitrophenyl phosphate 20 mM		Vmax	6.8 pmol/min/pmol
B7 (IL1RL1 19-328)	IL33 95-270 (Homo sapiens, UniProt O95760)	NFκB luciferase reporter, inhibitor	GEC-NFκB-Luc	with: IL-33 2.5 ng/mL		IC50	0.426 nM
COX6A2 (Bos taurus, UniProt P07471)	cytochrome c oxidase eight-subunit core (Bos taurus, UniProt P00396)	anion exchange chromatography, RP-HPLC, SDS-PAGE		120 min, pH 7.2, room temperature, apparent, partly coupled to unfolding		urea midpoint for subunit dissociation	3.6 M
B8 (DIS3)	CSL4/RRP4/RRP40/RRP41/RRP42/RRP46/RRP43/RRP45/MTR3 Exo9 core (Saccharomyces cerevisiae)	polyA RNA degradation			baseline: free Rrp44, lower = less active	relative exoribonuclease activity	42 fold
